Assay results of several laboratories.
A part holds a random share of what one study measured.

Sample 1 — technique: protein binding microarray; form: double-stranded DNA, one strand shown; matrix: in vitro; concentration: not given; baseline: not given; direction: higher = stronger binding
Target: Histone acetyltransferase KAT6A, winged helix 1, GST fusion (KAT6A, Homo sapiens, UniProt Q92794, residues 1-85)
Setting: 8-mer, flanks averaged, mean of 2 arrays, mostly near background
Target sequence (chain): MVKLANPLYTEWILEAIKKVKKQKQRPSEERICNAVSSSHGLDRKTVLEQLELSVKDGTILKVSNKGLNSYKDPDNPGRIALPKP
Sequence | E-score
CACTCCGA | 0.00279
CGAACCGA | 0.123
GTGTCGCA | 0.135
GTACTCAA | -0.135
CCTGCTCG | -0.045
CGACCATA | 0.0467
AAGCAACA | -0.178
GCTATGTA | -0.0739
AAATTGTG | -0.371
CGAAATGA | -0.14
AACGGGGA | 0.106
AGTAAACT | -0.0309
GAAATCAA | -0.0237
AGCATTCG | -0.0578
GATAAAGA | -0.0593
AGCATGTG | -0.096
AACTAGCG | 0.318
ACCTCCTC | -0.114
CATAATGC | 0.0483
ATGGAAAA | -0.145
AAATCTGC | -0.163
ACGTTGTA | -0.187
TGACGCAA | 0.0479
CGCCGCAC | 0.427
TATCCGGA | -0.0214

Sample 2 — technique: RNA Bind-n-Seq; form: RNA; matrix: in vitro; concentration: 365 nM; baseline: no-protein control; direction: higher = stronger binding
Target: RNA binding protein fox-1 homolog 2, RRM domain, GST-SBP tag (RBFOX2, Homo sapiens, UniProt O43251-10, residues 100-194)
Setting: natural RNA segment, single round, ends assumed
Constant ends, left off below: GGGAGUUCUACAGUCCGACGAUC … UGGAAUUCUCGGGUGCCAA
Construct (chain): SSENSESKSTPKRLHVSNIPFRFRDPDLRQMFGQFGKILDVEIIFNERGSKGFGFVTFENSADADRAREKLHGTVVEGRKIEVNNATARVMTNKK
Sequence | RBNS enrichment (R)
AUUGACAGUGUUGAAUUACCAACAGCCUGUGAAGAUCAGUUUGACCGGUGUGGACACGUGCUGGUUAAGCACUCAGGCCUACGUGGGCCGAGCGGGAUCUUGAUCAUGGG | 0.199
UCUGAAUAGAGGAAGAGAGAACCCCACAACAGCCAUACACGGGUAGUGUCCCUUUCCUCUCAGAGCCAAGUUCCAUUCCUGGAGUUAUCCUCUAGGCAUGAAGCCUUCCA | 0.305
UUCCUCCAGAGCGGCGUUAGACAGGAUAGCGGUCCGCACCGGGGGCCGUGUUUAAGGGAGAUUGGAGGAGGGGAAAGGCGGAAAGGUCUUGGGACUCUAAGCUAUUGGGU | 0.685
AAUUCUCAAGUGCACAGAUACUAGCAGUUAUGACAGUAAUACAGCGUCUUCUGUGACCCUCACUACCUGCACUGCUUGCAUCCCUGCUUUAUGCCUGGUGGCACAUUAUU | 1.31
GUCAGCCACAUACCCCCUCUCGCAGUGUUCUGAGGAAAGGAGCCUUCGGCAUAGACUCGUGUAUUUUACCAGCCUAUAAUCGUGCUGAGUGUUGGUUUCCUGCCCCUCCU | 0.289
AUCUGUAAGAUUGUAUGCUGUAUAUACCGUUCUAUUGAGAAACAUGUACACAUGUCUGUCUACUGUGCUUUCAGACAUAGAUAAAGCAUGAUAAAGAUUAUUAUUUAAGA | 12.6
UGUCAGAAUGGCACUAGUUCAGUUUAUGUCCCUUCUGAUAUAGUAGCUUAUUUGACAGCUUUGCUCUUCCUUAAAAUAAAAACAGAAAAAUAUAUCGUCCUAACAGUUAA | 0.376
CUAACUCCAAAGCUCUCCACACUAACAUUGUUUUGCUUAUUAUUGCUCCAAAGAUAAUUACCCCAACACCUUAUCAAUGCUAUACUUCCUCUCAUAAUGGCAGUGUAGGU | 1.02

Sample 3 — technique: universal PBM; form: double-stranded DNA, one strand shown; matrix: in vitro; concentration: 600 nM; direction: higher = stronger binding
Target: Sal-like protein 4, full length isoform A (SALL4, Homo sapiens, UniProt Q9UJQ4, residues 1-1053)
Chain of UniProt Q9UJQ4 (whole entry, looked up): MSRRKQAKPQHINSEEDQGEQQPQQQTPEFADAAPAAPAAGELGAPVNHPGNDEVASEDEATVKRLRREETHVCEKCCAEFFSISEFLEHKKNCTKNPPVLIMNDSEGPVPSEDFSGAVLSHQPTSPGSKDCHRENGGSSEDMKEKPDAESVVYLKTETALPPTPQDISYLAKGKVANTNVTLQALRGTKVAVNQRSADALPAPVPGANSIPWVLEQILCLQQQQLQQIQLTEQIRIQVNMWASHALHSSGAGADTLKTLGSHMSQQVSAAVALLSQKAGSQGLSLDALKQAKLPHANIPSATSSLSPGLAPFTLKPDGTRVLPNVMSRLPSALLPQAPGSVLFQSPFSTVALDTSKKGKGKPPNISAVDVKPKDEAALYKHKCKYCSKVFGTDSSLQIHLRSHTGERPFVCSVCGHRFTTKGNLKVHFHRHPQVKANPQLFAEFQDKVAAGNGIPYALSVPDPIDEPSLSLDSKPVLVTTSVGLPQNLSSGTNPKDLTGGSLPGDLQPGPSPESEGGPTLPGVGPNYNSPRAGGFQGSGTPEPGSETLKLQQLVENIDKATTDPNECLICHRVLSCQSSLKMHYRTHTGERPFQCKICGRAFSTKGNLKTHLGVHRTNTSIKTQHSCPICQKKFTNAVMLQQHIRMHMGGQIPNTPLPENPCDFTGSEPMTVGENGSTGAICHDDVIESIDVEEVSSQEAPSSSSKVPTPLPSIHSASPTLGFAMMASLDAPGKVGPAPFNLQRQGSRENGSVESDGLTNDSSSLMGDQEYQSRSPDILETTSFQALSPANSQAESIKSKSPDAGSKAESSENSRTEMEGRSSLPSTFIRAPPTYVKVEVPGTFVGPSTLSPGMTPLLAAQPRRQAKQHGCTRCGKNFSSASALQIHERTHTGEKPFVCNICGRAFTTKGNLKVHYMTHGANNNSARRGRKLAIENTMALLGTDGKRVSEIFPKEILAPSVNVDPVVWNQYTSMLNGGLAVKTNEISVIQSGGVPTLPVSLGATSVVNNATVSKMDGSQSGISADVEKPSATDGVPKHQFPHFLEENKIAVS
Setting: 8-mer, flanks averaged, mean of replicates
Sequence | E-score
ATTACTGC | 0.157
GCGTCAGC | -0.246
CTATGTTA | 0.189
GCTCTTCA | -0.163
GGAATCTA | -0.00376
CGCCCGAG | -0.325
CGCCCGGC | -0.386
TAGGGTAA | 0.179
AAGTCAGG | -0.0654
AGTACCCA | -0.106
GACCCCCA | -0.34
ATTACACA | 0.306
AAACACCA | -0.0252
ACCTCGAC | 0.00165
TCCCGGAA | -0.108
CGAGTACC | -0.0721
AGATGGCC | -0.213
TAAATAGA | 0.107
GAATATGA | 0.295
GCCACGGC | -0.32
GATGATTA | 0.193
AGGCTTGC | -0.183
ATAAAACC | 0.168
ATAACGGA | 0.299
CGAACCCC | -0.344

Sample 4 — technique: protein-binding microarray; form: double-stranded DNA, one strand shown; matrix: in vitro; concentration: 250 nM; setting: 60-bp whole probe; with: salmon DNA 0.4 mg/ml; baseline: random background probes; direction: higher = stronger binding; constant ends, left off below: GCCTAGCAC … GTCTTGATTCGCTTGACGCTGCTG
Target: Interferon regulatory factor 7, full length, phosphomimetic (IRF7, Homo sapiens, UniProt Q92985, residues 1-503, S101K/S471D/S472D/S475D/S476D/S477D/S483D/S484D/S487D)
Construct (chain): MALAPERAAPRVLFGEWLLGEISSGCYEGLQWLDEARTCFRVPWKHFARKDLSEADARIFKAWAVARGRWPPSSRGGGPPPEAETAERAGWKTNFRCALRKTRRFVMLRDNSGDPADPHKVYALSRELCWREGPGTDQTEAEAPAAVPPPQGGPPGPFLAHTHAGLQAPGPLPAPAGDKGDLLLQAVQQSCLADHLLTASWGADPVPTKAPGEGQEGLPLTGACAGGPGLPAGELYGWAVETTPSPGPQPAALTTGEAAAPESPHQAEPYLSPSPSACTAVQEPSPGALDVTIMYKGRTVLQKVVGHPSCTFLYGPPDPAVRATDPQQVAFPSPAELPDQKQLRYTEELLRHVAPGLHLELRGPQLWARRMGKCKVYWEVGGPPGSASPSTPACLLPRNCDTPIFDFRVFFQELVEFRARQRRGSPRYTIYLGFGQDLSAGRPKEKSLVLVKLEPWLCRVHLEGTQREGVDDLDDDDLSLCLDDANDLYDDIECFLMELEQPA
Sequence | log fluorescence [z-score]
GACGGACTTGACACTGGGGACGTGCTA | -0.657
TTAGGTTCCCTACTGCTTTAGTGCTAG | 0.662
GCCTACTCGCTCGTCCGGAGGTGCTAG | 0.493
TTAGATCTCAGTTTAGATTAGTGCTAG | 0.882
GACGGTTCCCTTTTCGTGACGTGCTAG | 2.93
GGTGCTGTTTACATAGTTCTGTGCTAG | -0.131
GAAGGTTTCGGTCTCGGGACGTGCTAG | 7.4
TTTTTTTTGGAATGTCTTCCCGTGCTA | 0.447
TGGAAACTCGTATGTGACCTTGTGCTA | -0.447
GACGATATCGGGTATCGCGACGTGCTA | -0.253
TTAGAACGGAGTCTCGATTAGTGCTAG | 0.818
GACGATTTCGGGTTTCGCGACGTGCTA | 2.21
GGCGAACTGAGTCTCGAGACGTGCTAG | -0.0432
ACATATATACAGAGATAGATGTGCTAG | 0.442
TTAGGGCTCGGTATCGGTTAGTGCTAG | 3.24
TTAGTACTGAGTATCGATTAGTGCTAG | 0.871
TTACGTTTCGACTTTCGGTTAGTGCTA | 6.38
TGGTCTTTCTGTTTTCTCCAGTGCTAG | 1.85
TCATCTTGCAGTATGGAACTGTGCTAG | 0.0999

Some of these lines once more (sample 4):
Sequence | log fluorescence [z-score]
GACGATTTCGGGTTTCGCGACGTGCTA | 2.21
GACGGTTCCCTTTTCGTGACGTGCTAG | 2.93
TGGTCTTTCTGTTTTCTCCAGTGCTAG | 1.85
TCATCTTGCAGTATGGAACTGTGCTAG | 0.0999
TTAGGGCTCGGTATCGGTTAGTGCTAG | 3.24
GACGGACTTGACACTGGGGACGTGCTA | -0.657
TTAGAACGGAGTCTCGATTAGTGCTAG | 0.818
GAAGGTTTCGGTCTCGGGACGTGCTAG | 7.4
